Experimental data of several laboratories.
Several values in a cell are separate wells, animals, samples, runs or records. ± gives the spread as reported.
UniProt P26718, sequence (whole entry, looked up): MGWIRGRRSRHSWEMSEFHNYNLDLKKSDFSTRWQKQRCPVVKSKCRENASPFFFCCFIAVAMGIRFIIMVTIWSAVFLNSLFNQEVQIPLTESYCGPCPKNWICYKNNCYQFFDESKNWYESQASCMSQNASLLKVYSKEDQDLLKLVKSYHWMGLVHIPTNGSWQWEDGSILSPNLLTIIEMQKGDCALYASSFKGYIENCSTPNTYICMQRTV
UniProt P40261, sequence (whole entry, looked up): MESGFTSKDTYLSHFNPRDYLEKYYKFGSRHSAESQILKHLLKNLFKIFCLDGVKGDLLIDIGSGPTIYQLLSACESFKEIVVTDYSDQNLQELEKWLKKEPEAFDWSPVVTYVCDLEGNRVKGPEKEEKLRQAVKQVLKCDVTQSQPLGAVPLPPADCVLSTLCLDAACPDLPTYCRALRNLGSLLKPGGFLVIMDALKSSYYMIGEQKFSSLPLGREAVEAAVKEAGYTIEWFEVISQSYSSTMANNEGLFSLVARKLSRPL
UniProt P41595, sequence (whole entry, looked up): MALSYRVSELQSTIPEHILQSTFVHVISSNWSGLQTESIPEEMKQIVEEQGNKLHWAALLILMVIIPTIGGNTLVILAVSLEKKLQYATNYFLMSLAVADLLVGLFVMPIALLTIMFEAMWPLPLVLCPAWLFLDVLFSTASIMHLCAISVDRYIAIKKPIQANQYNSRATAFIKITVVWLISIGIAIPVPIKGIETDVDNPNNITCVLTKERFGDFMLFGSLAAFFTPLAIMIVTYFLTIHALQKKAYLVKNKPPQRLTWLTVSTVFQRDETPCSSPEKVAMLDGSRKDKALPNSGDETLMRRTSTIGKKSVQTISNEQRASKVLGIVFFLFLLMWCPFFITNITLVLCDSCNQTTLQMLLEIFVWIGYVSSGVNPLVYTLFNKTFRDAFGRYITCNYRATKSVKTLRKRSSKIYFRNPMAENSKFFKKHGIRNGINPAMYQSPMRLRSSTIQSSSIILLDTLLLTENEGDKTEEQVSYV
UniProt Q9FIP9, sequence (whole entry, looked up): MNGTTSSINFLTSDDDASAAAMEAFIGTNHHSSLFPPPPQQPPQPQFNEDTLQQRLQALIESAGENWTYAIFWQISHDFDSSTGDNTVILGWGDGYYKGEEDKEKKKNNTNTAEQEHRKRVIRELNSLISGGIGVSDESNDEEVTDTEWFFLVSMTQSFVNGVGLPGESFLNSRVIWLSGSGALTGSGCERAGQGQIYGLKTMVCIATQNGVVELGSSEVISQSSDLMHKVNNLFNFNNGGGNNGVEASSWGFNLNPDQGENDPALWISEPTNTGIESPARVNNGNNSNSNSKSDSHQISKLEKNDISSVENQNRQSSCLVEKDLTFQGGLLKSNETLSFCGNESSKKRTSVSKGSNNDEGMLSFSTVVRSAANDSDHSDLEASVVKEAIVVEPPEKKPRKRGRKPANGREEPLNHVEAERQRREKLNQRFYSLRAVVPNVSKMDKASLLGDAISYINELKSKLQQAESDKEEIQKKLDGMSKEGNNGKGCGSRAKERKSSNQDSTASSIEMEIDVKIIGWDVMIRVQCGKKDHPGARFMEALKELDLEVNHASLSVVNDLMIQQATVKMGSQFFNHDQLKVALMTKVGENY
UniProt Q86TU7, sequence (whole entry, looked up): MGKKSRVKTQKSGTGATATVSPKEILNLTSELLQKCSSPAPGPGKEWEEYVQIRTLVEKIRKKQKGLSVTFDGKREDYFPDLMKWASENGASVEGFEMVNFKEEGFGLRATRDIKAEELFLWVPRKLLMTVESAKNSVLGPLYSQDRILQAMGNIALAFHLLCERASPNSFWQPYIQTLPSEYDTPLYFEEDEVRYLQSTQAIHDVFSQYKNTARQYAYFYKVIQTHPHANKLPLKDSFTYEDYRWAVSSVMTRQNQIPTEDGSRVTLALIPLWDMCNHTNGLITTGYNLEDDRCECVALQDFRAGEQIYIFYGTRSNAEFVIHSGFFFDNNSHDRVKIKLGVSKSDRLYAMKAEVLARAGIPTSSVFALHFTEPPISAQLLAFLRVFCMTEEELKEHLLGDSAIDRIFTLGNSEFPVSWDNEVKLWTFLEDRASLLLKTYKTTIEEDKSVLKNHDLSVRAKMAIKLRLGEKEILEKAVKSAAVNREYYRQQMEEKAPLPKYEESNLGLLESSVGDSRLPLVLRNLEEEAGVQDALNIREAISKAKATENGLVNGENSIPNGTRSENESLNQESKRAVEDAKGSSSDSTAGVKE
UniProt O15294, sequence (whole entry, looked up): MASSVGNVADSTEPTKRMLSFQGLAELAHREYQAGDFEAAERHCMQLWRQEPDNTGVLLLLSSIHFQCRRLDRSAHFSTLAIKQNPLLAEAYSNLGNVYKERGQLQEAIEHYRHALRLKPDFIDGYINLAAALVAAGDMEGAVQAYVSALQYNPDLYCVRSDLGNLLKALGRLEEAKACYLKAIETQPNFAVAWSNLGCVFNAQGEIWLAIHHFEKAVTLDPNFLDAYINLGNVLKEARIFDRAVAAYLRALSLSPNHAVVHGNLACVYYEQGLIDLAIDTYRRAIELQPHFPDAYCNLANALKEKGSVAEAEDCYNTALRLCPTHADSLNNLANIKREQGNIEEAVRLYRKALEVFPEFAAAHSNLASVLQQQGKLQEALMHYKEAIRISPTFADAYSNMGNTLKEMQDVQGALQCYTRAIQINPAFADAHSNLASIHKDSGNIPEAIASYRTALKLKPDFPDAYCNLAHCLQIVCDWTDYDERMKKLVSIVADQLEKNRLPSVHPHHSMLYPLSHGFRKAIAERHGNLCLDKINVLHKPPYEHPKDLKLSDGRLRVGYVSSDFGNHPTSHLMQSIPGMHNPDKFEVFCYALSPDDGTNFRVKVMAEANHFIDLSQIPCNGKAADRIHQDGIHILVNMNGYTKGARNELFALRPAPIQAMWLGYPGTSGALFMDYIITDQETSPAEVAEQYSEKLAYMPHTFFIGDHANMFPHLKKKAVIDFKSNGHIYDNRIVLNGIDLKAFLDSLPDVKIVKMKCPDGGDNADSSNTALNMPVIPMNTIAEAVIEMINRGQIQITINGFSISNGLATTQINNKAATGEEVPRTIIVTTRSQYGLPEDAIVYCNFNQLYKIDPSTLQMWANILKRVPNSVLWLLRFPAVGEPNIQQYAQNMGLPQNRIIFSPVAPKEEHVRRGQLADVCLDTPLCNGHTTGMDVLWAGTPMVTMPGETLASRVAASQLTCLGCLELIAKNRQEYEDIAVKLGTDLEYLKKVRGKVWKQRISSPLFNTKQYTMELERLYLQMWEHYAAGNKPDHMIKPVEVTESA
UniProt Q9UKF6, sequence (whole entry, looked up): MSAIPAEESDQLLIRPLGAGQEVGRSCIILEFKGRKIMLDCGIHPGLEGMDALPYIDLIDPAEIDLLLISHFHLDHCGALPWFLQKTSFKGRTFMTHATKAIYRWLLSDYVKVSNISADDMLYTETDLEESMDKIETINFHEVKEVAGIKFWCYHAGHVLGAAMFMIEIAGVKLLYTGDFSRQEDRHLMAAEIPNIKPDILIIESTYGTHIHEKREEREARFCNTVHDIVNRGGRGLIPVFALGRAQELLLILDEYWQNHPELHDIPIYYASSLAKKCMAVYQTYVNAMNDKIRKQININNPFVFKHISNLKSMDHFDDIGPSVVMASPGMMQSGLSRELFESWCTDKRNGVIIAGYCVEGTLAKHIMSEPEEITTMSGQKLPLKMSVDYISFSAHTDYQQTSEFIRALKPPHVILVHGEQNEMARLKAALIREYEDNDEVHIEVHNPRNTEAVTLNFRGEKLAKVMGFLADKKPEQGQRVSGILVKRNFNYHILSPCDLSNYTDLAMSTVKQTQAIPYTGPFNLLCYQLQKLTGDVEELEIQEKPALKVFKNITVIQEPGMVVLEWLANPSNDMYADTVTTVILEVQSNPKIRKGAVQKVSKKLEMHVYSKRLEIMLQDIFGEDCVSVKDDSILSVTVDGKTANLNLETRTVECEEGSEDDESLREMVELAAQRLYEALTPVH
UniProt P29371, sequence (whole entry, looked up): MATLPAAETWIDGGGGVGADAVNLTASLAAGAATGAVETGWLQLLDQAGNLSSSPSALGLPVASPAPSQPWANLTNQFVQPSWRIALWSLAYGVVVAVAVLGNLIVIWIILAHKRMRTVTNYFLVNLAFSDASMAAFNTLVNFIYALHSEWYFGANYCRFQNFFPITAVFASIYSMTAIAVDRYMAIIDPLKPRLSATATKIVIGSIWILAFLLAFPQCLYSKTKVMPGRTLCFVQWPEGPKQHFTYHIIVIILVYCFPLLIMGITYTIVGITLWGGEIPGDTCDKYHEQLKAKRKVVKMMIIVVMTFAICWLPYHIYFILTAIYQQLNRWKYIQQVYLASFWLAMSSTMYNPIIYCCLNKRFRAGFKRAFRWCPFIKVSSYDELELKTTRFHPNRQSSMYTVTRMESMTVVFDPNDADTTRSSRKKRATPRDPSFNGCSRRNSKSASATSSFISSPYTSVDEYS
UniProt P10632, sequence (whole entry, looked up): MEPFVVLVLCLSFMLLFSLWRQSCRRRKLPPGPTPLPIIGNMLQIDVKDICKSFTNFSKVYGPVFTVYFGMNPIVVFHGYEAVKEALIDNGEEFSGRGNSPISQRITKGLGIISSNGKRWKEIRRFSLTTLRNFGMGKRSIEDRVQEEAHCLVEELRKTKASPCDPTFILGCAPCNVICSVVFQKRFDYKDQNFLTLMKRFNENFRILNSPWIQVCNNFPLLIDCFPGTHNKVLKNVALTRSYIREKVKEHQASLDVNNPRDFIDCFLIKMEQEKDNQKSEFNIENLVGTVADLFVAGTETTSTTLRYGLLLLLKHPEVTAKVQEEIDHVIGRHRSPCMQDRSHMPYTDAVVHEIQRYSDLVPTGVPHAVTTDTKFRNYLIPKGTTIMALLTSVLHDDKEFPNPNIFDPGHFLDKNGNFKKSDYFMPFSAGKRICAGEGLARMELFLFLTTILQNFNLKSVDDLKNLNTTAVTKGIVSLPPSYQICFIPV

SMILES	target	assay	test system	setting	IC50
CC[N+](CC)(CC)CC	Potassium channel protein kcv, L70A in one subunit (A250R, Paramecium bursaria Chlorella virus 1, UniProt Q84568, L70A)	–	–	–	340 ± 20 µM
CN[C@@H](C)C(=O)N[C@H](C(=O)N1C[C@@H](NC(=O)COCCOCCOCCOCc2cn(CCNC(=O)CN(Cc3cccs3)C(=O)[C@H](NS(=O)(=O)c3cc4ccc(O)nc4cc3Cl)c3ccccc3OC)nn2)C[C@H]1C(=O)N[C@@H]1CCCc2ccccc21)C1CCCCC1	OGT (Homo sapiens, UniProt O15294)	enzyme activity, inhibitor, fluorescence	–	–	1.92 µM
NC[C@@H](CC[C@H](N)C(=O)O)C[C@H]1O[C@@H](n2cnc3c(N)ncnc32)[C@H](O)[C@@H]1O	Actin-histidine N-methyltransferase (SETD3, Homo sapiens, UniProt Q86TU7)	enzyme activity, inhibitor, radiometric	–	–	3.4 µM
CC(C)[C@@H]1NC(=O)[C@H](Cc2ccccc2)NC(=O)CSC[C@@H](C(N)=O)NC(=O)[C@H](CCC(=O)O)NC(=O)[C@H](CO)NC(=O)[C@H](Cc2c[nH]c3cccc(Cl)c23)NC(=O)[C@H](C2CCCCC2)NC(=O)[C@H](C(C)C)NC(=O)[C@H](Cc2ccc(O)cc2)NC(=O)[C@H](CC(=O)O)NC(=O)[C@H](Cc2c[nH]c3ccccc23)NC(=O)[C@H](Cc2ccc(N)nc2)NC(=O)[C@H](Cc2c[nH]c3ccc(Cl)cc23)NC(=O)[C@H](CCC(=O)O)NC1=O	Interleukin-1 receptor-like 2 (IL1RL2, Homo sapiens, UniProt Q9HB29)	reporter gene, inhibitor	HEK-Blue IL-36R	6 h, together with: IL-36 0.03 ng/mL	0.068 µM
CC[C@H](C)[C@@H]1NC(=O)[C@H](CCCNC(=N)N)NC(=O)[C@@H]2CCCN2C(=O)[C@H](C(C)C)NC(=O)[C@H](CO)NC(=O)[C@H]([C@@H](C)O)NC(=O)CNC(=O)[C@H](CC(=O)O)NC(=O)[C@@H](NC(=O)[C@@H](N)C(C)C)CSSC[C@@H](C(=O)N[C@H](C(=O)O)C(C)C)NC1=O	ACVR2B (Homo sapiens, UniProt Q13705)	reporter gene, antagonist, item: Smad2/3	HEK293T	4 h, together with: GDF11 1 ng/mL	> 100 µM
CC[C@H](C)[C@H](NC(=O)[C@H](CC(=O)O)NC(=O)[C@H](CCCNC(=N)N)NC(=O)[C@H](Cc1c[nH]c2ccccc12)NC(=O)[C@@H](NC(=O)[C@H](CO)NC(=O)[C@H](CC(N)=O)NC(=O)[C@H](CC(N)=O)NC(=O)[C@@H](NC(=O)[C@H](CCCNC(=N)N)NC(=O)[C@@H](N)Cc1c[nH]cn1)[C@@H](C)CC)[C@@H](C)CC)C(=O)N[C@@H](Cc1ccccc1)C(=O)N[C@@H](CC(C)C)C(=O)N[C@@H](CCCCN)C(=O)N[C@@H](CCCNC(=N)N)C(=O)N[C@@H](CCCCN)C(=O)O	Sensor histidine kinase ComD (Streptococcus gordonii, UniProt O33646)	–	–	–	> 1 µM
CC[C@H](C)[C@H](NC(=O)CNC(=O)[C@H](Cc1ccccc1)NC(=O)[C@@H]1CSCC(=O)N[C@H](Cc2ccc(O)cc2)C(=O)N2CCC[C@H]2C(=O)N[C@@H](CCCCN)C(=O)N1)C(=O)N[C@@H](CCCCN)C(=O)N[C@@H](Cc1ccccc1)C(=O)N[C@@H](CCCNC(=N)N)C(=O)N[C@@H](CC(=O)O)C(=O)N[C@@H](CCCNC(=N)N)C(=O)N[C@@H](Cc1ccccc1)C(=O)N[C@@H](CC(C)C)C(=O)N[C@@H](CC(C)C)C(=O)N[C@@H](CC(C)C)C(=O)N[C@@H](C)C(=O)NCC(N)=O	NNMT (Homo sapiens, UniProt P40261)	enzyme activity, inhibitor, mass spectrometry	–	–	4.43 µM and ~5 µM
C[C@H](CS)C(=O)Nc1cc(-n2nccn2)cc2c1OCO2	blaNDM-1 (Klebsiella pneumoniae, UniProt C7C422)	enzyme activity, inhibitor, fluorescence	–	with preincubation	1.27 µM
CC(C)C[C@H](NC(=O)[C@H](CC(C)C)NC(=O)[C@H](C)NC(=O)[C@H](CO)NC(=O)[C@H](CC(=O)O)NC(=O)[C@H](CCC(=O)O)NC(=O)[C@@H]1CCCN1C(=O)[C@H](CC(=O)O)NC(=O)[C@H](CCC(=O)O)NC(=O)[C@@H]1CCCN1C(=O)[C@@H](NC(=O)[C@@H](N)CC(C)C)C(C)C)C(=O)O	HLA-DRA/HLA-DRB3 (Homo sapiens, UniProt P01903+P79483)	binding, competition binding	purified HLA-DR	48 h, together with: radiolabelled probe peptide 0.1-1 nM	> 5 µM
CN1CCN(CCOc2c(Cl)cc(C(=O)N[C@@H](Cc3ccccc3)C(=O)O)c(O)c2Cl)CC1	CPSF3 (Homo sapiens, UniProt Q9UKF6)	enzyme activity, inhibitor, fluorescence	–	–	54 µM
C/C=C1/CN2CCc3c([nH]c4ccccc34)[C@@H]2C[C@@H]1/C(=C\OC)C(=O)OC	HTR2B (Homo sapiens, UniProt P41595)	inositol phosphate, antagonist	–	–	0.182 µM
CCn1nnc(-c2ccccc2NC(=O)[C@H](C)CS)n1	Metallo-beta-lactamase type 2 (Serratia marcescens, UniProt P52699)	enzyme activity, inhibitor, fluorescence	–	10 min preincubation, together with: FC5	0.129 µM
CC(C)(O)c1ccccc1CC[C@H](c1cccc(/C=C/c2ccc3ccc(Cl)cc3n2)c1)[S+]([O-])CC1(CC(=O)O)CC1 (some centres unmarked)	Cytochrome P450 2C8 (CYP2C8, Homo sapiens, UniProt P10632)	inhibitor	human liver microsomes	pH 7.4, together with: paclitaxel	0.05 µM
Cc1cccc([C@H](NC(=O)c2cnccc2-c2ccc(C(F)(F)F)cc2)C(=O)N(C)C)c1	NKG2-D type II integral membrane protein, with ULBP6 (KLRK1, Homo sapiens, UniProt P26718)	ligand binding, inhibitor, TR-FRET	HEK293 expressing NKG2D and DAP10	together with: ULBP6-AF647	0.9 ± 0.3 µM
CC(C)C[C@H](NC(=O)[C@H](CCCNC(=N)N)NC(=O)[C@H](CCC(=O)O)NC(=O)[C@H](CCCCN)NC(=O)[C@H](CCCNC(=N)N)NC(=O)[C@H](CCCCN)NC(=O)[C@]1(C)CCCC=CCCC[C@](C)(NC(=O)[C@H](CC(C)C)NC(=O)[C@H](CO)NC(=O)[C@H](C)NC(=O)[C@H](CCCCN)NC(=O)[C@H](CCCNC(=N)N)NC(=O)[C@H](C)NC(=O)[C@H](CCC(N)=O)NC(=O)[C@@H]2CCCN2C(=O)[C@@H](NC(=O)[C@H](CO)NC(=O)c2ccc3c(c2)C(=O)OC32c3ccc(N(C)C)cc3Oc3cc(N(C)C)ccc32)C(C)C)C(=O)N[C@@H](CCCNC(=N)N)C(=O)N[C@@H](Cc2ccccc2)C(=O)N[C@@H](CC(C)C)C(=O)N1)C(=O)O	Transcription factor MYC3 (MYC3, Arabidopsis thaliana, UniProt Q9FIP9)	JAZ9 peptide binding, inhibitor, AlphaScreen	–	pH 8.0, 25 °C, together with: 50 nM biotin-JAZ9 peptide	4.5 ± 1.4 µM
CNC(=O)C(NC(=O)c1ccccc1-c1ccc(C(F)(F)F)cc1)c1cccc(C(F)(F)F)c1 (centres unmarked)	NKG2-D type II integral membrane protein, with MICA (KLRK1, Homo sapiens, UniProt P26718)	ligand binding, inhibitor, TR-FRET	HEK293 expressing NKG2D and DAP10	together with: MICA-Alexa647	7.4 ± 1.5 µM
COC1CC(=O)N(C)C=CCCCC(=O)N(C)C(C(C)C)C(=O)N(C)C(CC(C)C)C(=O)OC(C(C)C)CC(C)C1 (centres unmarked)	TACR3 (Homo sapiens, UniProt P29371)	β-arrestin recruitment, antagonist	–	–	~98.6 µM

Repeated from above:
SMILES	target	assay	test system	setting	IC50
CC(C)(O)c1ccccc1CC[C@H](c1cccc(/C=C/c2ccc3ccc(Cl)cc3n2)c1)[S+]([O-])CC1(CC(=O)O)CC1 (some centres unmarked)	Cytochrome P450 2C8 (CYP2C8, Homo sapiens, UniProt P10632)	inhibitor	human liver microsomes	pH 7.4, together with: paclitaxel	0.05 µM
Cc1cccc([C@H](NC(=O)c2cnccc2-c2ccc(C(F)(F)F)cc2)C(=O)N(C)C)c1	NKG2-D type II integral membrane protein, with ULBP6 (KLRK1, Homo sapiens, UniProt P26718)	ligand binding, inhibitor, TR-FRET	HEK293 expressing NKG2D and DAP10	together with: ULBP6-AF647	0.9 ± 0.3 µM
CC(C)C[C@H](NC(=O)[C@H](CCCNC(=N)N)NC(=O)[C@H](CCC(=O)O)NC(=O)[C@H](CCCCN)NC(=O)[C@H](CCCNC(=N)N)NC(=O)[C@H](CCCCN)NC(=O)[C@]1(C)CCCC=CCCC[C@](C)(NC(=O)[C@H](CC(C)C)NC(=O)[C@H](CO)NC(=O)[C@H](C)NC(=O)[C@H](CCCCN)NC(=O)[C@H](CCCNC(=N)N)NC(=O)[C@H](C)NC(=O)[C@H](CCC(N)=O)NC(=O)[C@@H]2CCCN2C(=O)[C@@H](NC(=O)[C@H](CO)NC(=O)c2ccc3c(c2)C(=O)OC32c3ccc(N(C)C)cc3Oc3cc(N(C)C)ccc32)C(C)C)C(=O)N[C@@H](CCCNC(=N)N)C(=O)N[C@@H](Cc2ccccc2)C(=O)N[C@@H](CC(C)C)C(=O)N1)C(=O)O	Transcription factor MYC3 (MYC3, Arabidopsis thaliana, UniProt Q9FIP9)	JAZ9 peptide binding, inhibitor, AlphaScreen	–	pH 8.0, 25 °C, together with: 50 nM biotin-JAZ9 peptide	4.5 ± 1.4 µM
